# Published values collected from several papers.
# A part holds a random share of what one study measured.

# Sample 1 — technique: aptamer microarray, sandwich; form: DNA with 2'F-ANA; matrix: in vitro; tested at: 200 nM; with: Cy3 exosite-II aptamer, 400 nM; reading: higher = stronger binding; sequence: GGTTGGTGTGGTTGG
# Target: Prothrombin, mature alpha-thrombin (F2, Homo sapiens, UniProt P00734)
# Notes: whole 15-mer aptamer, many near background
Modification,mean fluorescence intensity [a.u.]
2'F-ANA at 2 4 8 9 10 11 12 13,102
2'F-ANA at 2 3 4 5 8 11 13 15,63.7
2'F-ANA at 3 5 7 8 9 10 12 14 15,53.7
2'F-ANA at 1 2 3 4 5 6 10 14,69.1
2'F-ANA at 5 7 9 10 12 14,44.9
2'F-ANA at 3 5 7 14,57.1
2'F-ANA at 1 6 7 10 12 13 14,49.5
2'F-ANA at 2 3 4 5 6 11 12 13 14 15,56.1
2'F-ANA at 4 8 9 11,306
2'F-ANA at 2 5 6 8 9 12 13 15,185
2'F-ANA at 1 3 9 11 13,209
2'F-ANA at 2 3 4 6 9 11 13,362
2'F-ANA at 3 5 10 11,89.1
2'F-ANA at 1 4 5 9 14,81.5
2'F-ANA at 1 2 4 5 6 7 8 10 15,54
2'F-ANA at 1 5 7 9 10 14 15,43.4

# Sample 2 — technique: RNA Bind-n-Seq; form: RNA; matrix: in vitro; tested at: 200 nM; notes: whole 134-nt RNA, ends assumed; with: 150 mM KCl; reference: input library; reading: higher = stronger binding
# Target: Fragile X messenger ribonucleoprotein 1, C-terminal low-complexity region (Fmr1, Mus musculus, UniProt P35922)
# Shared flanks, not repeated: GGGAGUUCUACAGUCCGACGAUC … UGGAAUUCUCGGGUGUCAAGG
Sequence,log2 enrichment
AGUCCUGUGCUACACAUCGUAUGUACCGAAUCGGGUUUUUGGGAGGGAAAAAAAGGGAAAGUAUUAUGUUACGCCGUUCGGAUCUGCACU,0.219
UCCUCAAGUCCUGUGCUACACAUCGUAUGUACCGAAUCGGCGGGCGGCGGGGAAAGUAUUAUGUUACGCCGUUCGGAUCUGCACUUCCAG,0.323
GCAGGAAGUAACAACAAAUGGAAAUGCUUCGGAUAGUGGCAGGGGUGGGGGUUGCUAAGGAAAGGGUGGGAUGGGAGUGGGUAAAGAGUU,0.227
CCUCAAGUCCUGUGCUACACAUCGUAUGUACCGAAUCGGAGGUUUGGUUUGGAAAGUAUUAUGUUACGCCGUUCGGAUCUGCACUUCCAG,-0.0314
CCUCAAGUCCUGUGCUACACAUCGUAUGUACCGAAUCGGGUGGUGGGGUGGGGAAAGUAUUAUGUUACGCCGUUCGGAUCUGCACUUCCA,1.07
CACAGACAACACGCACCCACACAGACACAGAGGGAAGGGGUUGGUAUGGGGACAGGGUGCACAGCAGGGCGGGGUAGGACCCCAGCCCCU,1.34
ACCAUGCAGGUGGGCAUCUUUGGGAAGUGGGACAAGGGGGGGAUAGGGAGGGGGGUAACACUUUGGGAACAGGUGGUCCCAGGUCGUUUC,0.686
ACCAUGCAGGUGGGCAUCUUUGGGAGGUGGGGCAAGGGGGGGAUAGGGAGGGGGGUAACACUUUGGGAACAGGUGGUCCCAGGUCGUUUC,0.928
UGGGAGGUGGAUUUUGUUUAUUUUUUUAGCUCAUUUCCAGGGGCGGGAAUUUUUUUUUAAUAUGUGUCAUGAAUAAAGUUGUUUUUGAAA,0.16
UCCUGUGCUACACAUCGUAUGUACCGAAUCGGGUUUUUGGGUUUUUGGGUUUUUUUGGGAAAGUAUUAUGUUACGCCGUUCGGAUCUGCA,0.304
CACAGACAACACGCACCCACACAGACACAGAGGGAAGGGGUUGGGAUGGGGACAGGGUGCACAAAAGGGCGGGGUAGGACCCCAGCCCCU,1.25
GUCCUGUGCUACACAUCGUAUGUACCGAAUCGGGUUUUUGGGAAAAAAAGGGAAAGGGAAAGUAUUAUGUUACGCCGUUCGGAUCUGCAC,-0.447
CCUGUGCUACACAUCGUAUGUACCGAAUCGGGGAAAAAAAGGGGAAAAAGGGGUUUGGGGAAAGUAUUAUGUUACGCCGUUCGGAUCUGC,0.2
CCUGUGCUACACAUCGUAUGUACCGAAUCGGGGUUUUUUUGGGUUUUUUUGGUUUUUUUGGAAAGUAUUAUGUUACGCCGUUCGGAUCUG,-0.583

# Sample 3 — technique: RNA Bind-n-Seq; form: RNA; matrix: in vitro; tested at: 365 nM; reference: no-protein control; reading: higher = stronger binding
# Target: RNA binding protein fox-1 homolog 2, RRM domain, GST-SBP tag (RBFOX2, Homo sapiens, UniProt O43251-10, residues 100-194)
# Notes: natural RNA segment, single round, ends assumed
# Shared flanks, not repeated: GGGAGUUCUACAGUCCGACGAUC … UGGAAUUCUCGGGUGCCAA
# Residues (chain): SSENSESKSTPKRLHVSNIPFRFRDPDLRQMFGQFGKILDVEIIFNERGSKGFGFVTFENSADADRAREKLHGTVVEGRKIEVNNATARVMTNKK
Sequence,RBNS enrichment (R)
UCUGGCCCUCGGUGGCUGCACAGAAGGGCUCUUUCUCUCUGCUGAGCUGGGCCCAGCCCCUCCACGUGAUUUCCAGUGAGUGUAAAUAAUUUUAAAUAACCUCUGGCCCU,0.312
GGCCGAACUCGCCCCACACCUGCGGGCGCCUGGCUGCCGACGCCGGUGGAGGCCACGCCGUCGGUCGGGAACGGUCGCGUCGCCCGGGUCGCCGCCGCCGCCGCCGCCGU,0.246
GAAGGAACUUUAAAAAUCAUCCGGUCCAAUCUCUUUCCUCUUUCUGCCACCUCCCAAGGCAGAAAUCCCCUCUUCAGCUUCUUUUGUAGGUGGGAAUCCAGCCUCUGUUA,0.648
GUCUCUGUGGUUCUGCACAGAUUUUGGAAGGUCUUCACUACUCUUGGAAACAAACCCAUGAAUGAAGAAGAAACUCUUAAAAUGGUUCUGUCUGCACUGAUUCAAAGAGG,0.872
UUGAGCAGCCUAUGAACCUAAAGACAUACUGCAGUUUGUUCAUAAAUGUAUUCAGUCUUUUAUUCUUUAUAAUUGUGUGUAAAUGUUAACUAAACAGUGGAUUCCUCUCG,0.562
GAAAGUAGCAGAUUAGUGCAAGGUGGCAUGCAUAUAAGGUUAACUGAGUGGGGUACGCUAAUUAUACUUUUUGUUGUGGAUAAAAAAUGCUUGUCAAUAGCCUUUUUCUA,3.95
UUUCUGGUGGUCUGUUGGCAGGCUGGCCAGUCCAGGCUGCCGUGGGGCCGCCGCCUCUUUCAAGCAGUCGUGCCUGUGUCCAUGCGCUCAGGGCCAUGCUGAGGCCUGGG,1.2
UUUUUUUUGGUUUCUUGAGACAGGGUUUCUCUGUUUAGCUCUGGCUGUAGACCAGCUGGCCUCAAACUCAGAAAUCCGCCUGUCUCUGCCUCCCGAGCACUGGGAUUAAA,0.266
CAGGAGGUGAGCAUAUUCUCUUGGUGCAGCUCCCAGCUUCAGACCUGCUGAGGGACCCUUCAACUGGCCAGAGCCUGGAUCAAUUUCAUGUUGAUCAGUCAGAGGAACUG,0.404
UAUUUUUCCCCUUAAAAUAGGAGAGAGCCAAAAUUGACCAAGGGUAUUCUGCAGCGAACCGGAGACCAAAGAGUUACCCCUACCCCUACCCCAUUCCACCCUCUCUGGGA,0.294
CCUGUGACAUCCCCUCGCCCUGCAUGGAGCCUGUGUGUCACAGAAUCGCCCAACACUCCUGCACAUCAGCAGCACCAGGCCCGGGAGUGCCACGAGUGUUGAACCUCAUC,5.07
AUAUGUGUAUUUGAUAGGUGGGAUUCUGGGUCAGUGAUAAAAAAGGAUUGUAACAGGAUUGAUGGCACUUAGGGACAUCUCAUCCAACCGGGACUUAAAUUUCACACUAG,0.719

# Sample 4 — technique: protein binding microarray; form: double-stranded DNA, one strand shown; matrix: in vitro; tested at: not given; reference: not given; reading: higher = stronger binding
# Target: Histone acetyltransferase KAT6A, winged helix 1, GST fusion (KAT6A, Homo sapiens, UniProt Q92794, residues 1-85)
# Notes: 8-mer, flanks averaged, mean of 2 arrays, mostly near background
# Construct (chain): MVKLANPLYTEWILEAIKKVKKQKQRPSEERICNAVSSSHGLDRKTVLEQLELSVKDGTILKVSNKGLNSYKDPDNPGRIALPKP
Sequence,E-score
ATGGCTGG,-0.202
CAAGTAAC,-0.0468
AAGCCGCA,0.286
AGGCTAAA,-0.0256
AAATGAAA,-0.0985
GTGCATAA,-0.145
CGGCTAAG,0.308
AACTCCTA,-0.282
ACCTCTGC,-0.0701
GCGATATA,0.15
GGAGGGTA,-0.0107
GAGGGAGC,-0.0366
ACGCAAGG,-0.131
AGGAATCG,0.0706
CGGGAACG,0.421
CCATTCGA,-0.143
ACAACACC,-0.0719
GACCCCAA,-0.148
GACTTTAA,-0.15
GCTCGCCC,0.0842
CTACGCTC,0.132
CCCCTCGG,0.106
ATAGCAGG,-0.111
ACATTGGT,-0.255
CAAGCCTG,-0.121

# Sample 5 — technique: RNA Bind-n-Seq; form: RNA; matrix: in vitro; tested at: 100 nM; reference: input RNA pool; reading: higher = stronger binding
# Target: RING finger protein unkempt homolog, zinc fingers 1-6, SBP tag (UNK, Homo sapiens, UniProt Q9C0B0, residues 30-357)
# UniProt Q9C0B0, sequence (30-357, looked up): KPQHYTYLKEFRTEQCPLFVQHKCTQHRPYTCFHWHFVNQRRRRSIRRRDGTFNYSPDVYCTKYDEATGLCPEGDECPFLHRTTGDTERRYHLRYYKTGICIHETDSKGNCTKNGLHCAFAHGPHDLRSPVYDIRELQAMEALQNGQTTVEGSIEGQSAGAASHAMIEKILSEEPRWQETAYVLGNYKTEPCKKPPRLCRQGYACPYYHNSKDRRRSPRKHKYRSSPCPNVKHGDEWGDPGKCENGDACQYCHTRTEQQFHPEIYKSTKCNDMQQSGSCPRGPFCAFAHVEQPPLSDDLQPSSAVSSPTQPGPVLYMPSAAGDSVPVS
# Notes: RNA with constant flanks, vertebrate orthologous sites, ends assumed
# Shared flanks, not repeated: GGGAGUUCUACAGUCCGACGAUC … CAACAGAGGAUUGAGCAUCA
Sequence,bound/input enrichment
UGUCCCUGUUAAGCACUGCGUUCCAGACCGUGUCUGACUUAGUUAACCUAGGGGAUUUUAUAGUUUUACUUUAACGAAGUCCUGAUUAACACAGAACAGCGGGAGGACGGUUCCUCUCCU,0.397 ratio
UUACAGUCAUUGAUGGACUCUAUUUUUUUAUUAUUACUUGGACCUUGGUCGUUUUUAUACUAGCAAAAUGUCUUGUUUUAAUUUGUGUUUUUUUGGGGGGGAGGGAGUGAACUUGCUGAU,2.23 ratio
GUAUGUGUGUGCAUUAUUCACAUUCCUGUCUGUUCUGUUGAAGGGGGAAAAAGAGACAUUUUGACCUUUUUUAAGGUUAUUGACUUAAUUUUAUGUUAUUUGGUUGCAUGAAAUUGCCCU,0.607 ratio
UCUUUUUAUUGAUCAGGUCUAUAAAUGUGUACUAAAAAAUCAGUUUAUUUAUAAACAGAAGAGUUUAUUUAAAGAGAAAGUCUUUCCUCAUCGGUAUCGUGGUAUGCAUUAAUUCCAUUU,0.207 ratio
UUACAGUCAUUGAUGGACUCUAUUUUUUUAUUAUUACUUGGACUUUGGUCGUUUUUAUACUAGCAAAAUGUCUUGUUUUAAUUUGUGUUUUUUUUGGGGGGGGGAGGGAGUGAACUUGCU,1.39 ratio
UUUUUUGUUUUGCACAUGACAGUGUUUGUAACGGAAUUUUCUGAGGAAGAAGGGGUGCUGUAGCAGUGGUGCCGGGGUUCCUGGCCUCCAGCACCCUACCACCUCACCACCCCACCUGGC,0.332 ratio
AGUUUGUAUGUACAUUAUUUACAUUCCUCUGUUGUGUUUGGAAGAAAACAAAAAGACAUUUUAGCCUUUUUUAAGGUUAUUGAUUUAAUUUAAUGUUAUUUGGUUGCAUGAAGUUGCUCU,0.351 ratio
CCUUUCUCCCCUGCUGAGAGGGAGUGGGGGAGCCCAGGAAGACCCUCAGCUGUUCCAAUCCAGUAUUUUUUUUCUUUUUUAAAAUUACUGUAUUUAUUAUGACGAUGGUGACUCCCCAGU,0.46 ratio
CUUUUAACCAGUUAUGUCUGUAAAUGUAUAUUGAGAGAACUGAAAUAUUUAUAAACAGAGUGAUUUAUUUAAGGAAAAGCUCAUUCCUCUUUCGUAUGGUGGUCUGUGUUAAUUACAUUU,0.955 ratio
CACGUCUGGUGAUAUUUGGCCUGGCCUUUCAGCUUAUGAUAAUAGUCCCAGAUCACCCCAUAGUCCUUCACCAAUUGCUACACCACCCAGCCAGAGUUCAUCUUGCUCUGAUGCCCCCAU,1.16 ratio
CCCCAGUUUGUAUGUACAUUAUUCAUAUUCCUCGUUGUGUUUCGGGGGGAAAAGACAUUUUAGCCUUUUUUAAAAGUUACUGAUUUAAUUUCAUGUUAUUUGGUUGCAUGAAGUUGCCCU,0.641 ratio

# A few entries again (sample 2):
Sequence,log2 enrichment
CACAGACAACACGCACCCACACAGACACAGAGGGAAGGGGUUGGUAUGGGGACAGGGUGCACAGCAGGGCGGGGUAGGACCCCAGCCCCU,1.34
AGUCCUGUGCUACACAUCGUAUGUACCGAAUCGGGUUUUUGGGAGGGAAAAAAAGGGAAAGUAUUAUGUUACGCCGUUCGGAUCUGCACU,0.219
CCUCAAGUCCUGUGCUACACAUCGUAUGUACCGAAUCGGGUGGUGGGGUGGGGAAAGUAUUAUGUUACGCCGUUCGGAUCUGCACUUCCA,1.07
CCUCAAGUCCUGUGCUACACAUCGUAUGUACCGAAUCGGAGGUUUGGUUUGGAAAGUAUUAUGUUACGCCGUUCGGAUCUGCACUUCCAG,-0.0314
UCCUGUGCUACACAUCGUAUGUACCGAAUCGGGUUUUUGGGUUUUUGGGUUUUUUUGGGAAAGUAUUAUGUUACGCCGUUCGGAUCUGCA,0.304
GUCCUGUGCUACACAUCGUAUGUACCGAAUCGGGUUUUUGGGAAAAAAAGGGAAAGGGAAAGUAUUAUGUUACGCCGUUCGGAUCUGCAC,-0.447
CCUGUGCUACACAUCGUAUGUACCGAAUCGGGGUUUUUUUGGGUUUUUUUGGUUUUUUUGGAAAGUAUUAUGUUACGCCGUUCGGAUCUG,-0.583
CACAGACAACACGCACCCACACAGACACAGAGGGAAGGGGUUGGGAUGGGGACAGGGUGCACAAAAGGGCGGGGUAGGACCCCAGCCCCU,1.25
UGGGAGGUGGAUUUUGUUUAUUUUUUUAGCUCAUUUCCAGGGGCGGGAAUUUUUUUUUAAUAUGUGUCAUGAAUAAAGUUGUUUUUGAAA,0.16
